Published values gathered from unrelated publications.
Parts stem from different laboratories: compare values within a part only.

Sample 1
Target: Prothrombin, mature alpha-thrombin (F2, Homo sapiens, UniProt P00734)
Method: aptamer microarray, sandwich
Form: DNA with 2'F-ANA
Sample: in vitro
Concentration: 200 nM
Notes: whole 15-mer aptamer, many near background
Together with: Cy3 exosite-II aptamer, 400 nM
Direction: higher = stronger binding
Endpoint: mean fluorescence intensity
Oligonucleotide: GGTTGGTGTGGTTGG
2'F-ANA at 1 2 3 6 9 10 13: 60.1 a.u.
2'F-ANA at 1 3 4 5 6 8 9 10 12 15: 48.7 a.u.
2'F-ANA at 1 2 7 10 14: 47.7 a.u.
2'F-ANA at 1 2 4 5 6 7 8 11 14: 128 a.u.
2'F-ANA at 1 6 8 9 10 11 13 14: 45.6 a.u.
2'F-ANA at 2 5 7 9 12 13 14: 88.4 a.u.
2'F-ANA at 1 2 3 4 10 11 12 13 14: 50.9 a.u.
2'F-ANA at 3 4 5 6 8 12 13 14 15: 54 a.u.
2'F-ANA at 1 6 9 13 14: 47.5 a.u.
2'F-ANA at 1 2 4 5 6 7 8 9 10 11 12 13 14 15: 60.2 a.u.
2'F-ANA at 2 3 4 6 11 13: 383 a.u.
2'F-ANA at 2 5 8 11 13 15: 72.7 a.u.
2'F-ANA at 1 2 3 6 7 9 10 12 15: 86.4 a.u.
2'F-ANA at 2 3 5 6 7 9 10 12: 62.3 a.u.
2'F-ANA at 1 3 9 10 14 15: 58.8 a.u.
2'F-ANA at 2 4 7 8 9 10 14: 69.9 a.u.
2'F-ANA at 2 3 4 8 11 12 15: 760 a.u.
2'F-ANA at 1 2 3 5 7 8 9 11 13 14: 90.4 a.u.
2'F-ANA at 2 7 8 9 12 14: 210 a.u.
2'F-ANA at 3 4 8 9 11 13 14: 262 a.u.
2'F-ANA at 2 4 7 9 12 14: 144 a.u.
2'F-ANA at 1 6 7 8 10 12 13 15: 68.5 a.u.

Sample 2
Target: RING finger protein unkempt homolog, zinc fingers 1-6, GST-SBP tag (UNK, Homo sapiens, UniProt Q9C0B0, residues 30-357)
Method: RNA Bind-n-Seq
Form: RNA
Sample: in vitro
Concentration: not given
Notes: RNA with constant flanks, human-mouse chimeric sites, ends assumed
Relative to: input RNA pool
Direction: higher = stronger binding
Endpoint: bound/input enrichment
Shared flanks, not repeated: GGGAGUUCUACAGUCCGACGAUC … CAACAGAGGAUUGAGCAUCA
Construct (chain): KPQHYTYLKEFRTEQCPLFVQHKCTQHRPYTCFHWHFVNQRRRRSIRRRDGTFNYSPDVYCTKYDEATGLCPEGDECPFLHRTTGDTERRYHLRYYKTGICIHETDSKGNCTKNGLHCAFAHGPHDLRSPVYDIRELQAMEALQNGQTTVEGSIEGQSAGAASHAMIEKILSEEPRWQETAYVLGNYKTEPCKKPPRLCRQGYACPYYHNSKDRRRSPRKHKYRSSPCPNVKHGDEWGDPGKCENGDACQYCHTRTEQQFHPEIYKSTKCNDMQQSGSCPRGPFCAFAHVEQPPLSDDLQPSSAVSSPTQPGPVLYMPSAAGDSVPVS
CUUUUUAAGAAGAUAUGUGAUGGGAUCUUCUAUACCCCUCAGUACUUAAACCCUUCAGUAAUCAGCCUUUUGAAACAUAUGCUGCAGGUGGAUCCCAUGAAGAGGGCCGCAAUAAAAGAU: 0.221 ratio
UGGCGCCUCCCAUUUUUACUCGUGUUUUUAAGUGUAUUUUUAUAAGACAUGUGUAUUUACAAUUGAGCUUUUGUUACAUAAUGCUGAAAUGCUACUGGAGAUUAUGAAAAAUGUUUCAAU: 0.2 ratio
GGCUGCUGGUGACUGUCCUGGAGUGGCUGGAGUUCCCGCCGGAGCGCGCGCAGGUUAAUUUUAGAAAAUGCCAAGUAGGAAGUUUGUUGAGGGUGAAGUGGUAAGAGGCCGAUGGCCUGG: 6.79 ratio
AAAGUGGACUAUGGCGAGUACAUGGAUAAAAACAAUGUGAGGCGACAAGCAACAACAAUCAUAGCUGAUAACAUUAUAUUUCUGAGUGACCAGACAAAAGAGAAGGAAUAGAACGGAUGA: 1.72 ratio
AAAGAGUGGAUAGAGUGUGCACAUGGAAUCGGUGGGACCCGGGCGAAGAAAGAGUGCAAGAUAGAGUUCGAUGACUUCGAAGAGUGCUUGCUUCGGUACAAAACGAUGAGGCGAAUGCAU: 0.338 ratio
UCCCAAAUCCAGCAGCUAGAAGGAGCCUUGAGACAAACACUCCACACACAGGGAAGGCAAUAGCUUUGUACAUUGGUUUACAUUUUUUCCCCCUGUGUUUUCUAGGGGAGGUCAUAGUGC: 0.854 ratio
AUCAAAUACUUUGGGGAUAUUAUUAGCGUGGGACAGAGACUGUUGCAAGGAGCUCGGAUCUUAGGGAUUCCAGUUAUCAUAACGGAACAAUACCCCAAAGGACUUGGCAGCACCGUUCAA: 0.305 ratio
GUAGCUGGGACUACAGAAAUGCUGGUAAUUUCAGUCACUUGCUGAUGACUUCUGAUGUCCCAGCAAAUGUUGGCAUUCACUGCAAUAGAGAAGAUACACUCGCAAGGCCACGUCUAAGGU: 0.152 ratio
GGCUGCUGGUGACUGUCCUGGAGUGGCUGGAGUUCCCGCCGGAGCGCGCGCAGGUUAAUUUUAGAAAAUGCCAAGUAGGAAGUUUGUUGAGGGUGAAGUGGUCAGAGGUCGAUGGCCUGG: 5.02 ratio
AGGAGGAGGUUAAAGGGUGAGAGUGGGGUGGAAGACUGUGUCAUGGCUCUGGAGACAUUGUUUAGUGUCCUGCUUUCUCUGUGCAGACUGAUGGCCCCCUACACACCCUUUCUGACUGAG: 0.0962 ratio
UGUAGUUUCUUGAUUUAGUGGCUGGGCCUUUUCUUUCUUUCCUUUAGGAAAAGCCUAAAGAUUAGGUUGUAAGAAAAACAGAAGCCAGCCAUGUUUCACCUGUGUUACAGGUAUUUCGUC: 0.355 ratio

Sample 3
Target: Histone acetyltransferase KAT6A, winged helix 2, GST fusion (KAT6A, Homo sapiens, UniProt Q92794, residues 85-181)
Method: protein binding microarray
Form: double-stranded DNA, one strand shown
Sample: in vitro
Concentration: not given
Notes: 8-mer, flanks averaged, mean of 2 arrays, mostly near background
Relative to: not given
Direction: higher = stronger binding
Endpoint: E-score
Residues (chain): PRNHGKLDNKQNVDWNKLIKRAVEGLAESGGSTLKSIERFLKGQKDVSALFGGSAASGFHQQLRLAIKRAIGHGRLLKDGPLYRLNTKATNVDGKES
AAGTCAAC: -0.0161
CAGAACAA: 0.143
ACCCAGCT: -0.118
GGAAAATA: 0.0465
ATGACATG: -0.173
CCCTTCGG: 0.112
AGCCGGAC: 0.216
ACATGCAG: 0.0673
GCTATTTA: -0.122
AAACTGCA: 0.0985
CCCTGGTA: -0.133
ATTTTTCC: 0.00426
AAATAAAA: 0.0566
AAACGTTC: -0.13
CTTAGCAA: 0.131
CGCAGGGC: 0.232
AACGGTAT: -0.064
CCTACGGA: -0.0108
CCGAATAC: 0.0652
AAGCCTCT: -0.101
CGCGAAGA: 0.12
ACGCTTCT: -0.237
AAGCACAT: 0.0375
GGATACCA: -0.0114
ACGTCTTC: -0.255

Sample 4
Target: RNA binding protein fox-1 homolog 2, RRM domain, GST-SBP tag (RBFOX2, Homo sapiens, UniProt O43251-10, residues 100-194)
Method: RNA Bind-n-Seq
Form: RNA
Sample: in vitro
Concentration: 365 nM
Notes: natural RNA segment, single round, ends assumed
Relative to: no-protein control
Direction: higher = stronger binding
Endpoint: RBNS enrichment (R)
Shared flanks, not repeated: GGGAGUUCUACAGUCCGACGAUC … UGGAAUUCUCGGGUGCCAA
Construct (chain): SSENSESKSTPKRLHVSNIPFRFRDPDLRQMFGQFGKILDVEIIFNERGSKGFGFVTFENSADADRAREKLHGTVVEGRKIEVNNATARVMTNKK
CAUCUUAUUUGAGAUGGGGGUGGGAACGAAUUAAAAUAUGAUAGAGAACUAUAUGCAGAUUUUAAAAUCUAGUCAGUACUAGCAUCUAUAAAGGGCUUUUCUGAAAUUUA: 0.537
CAUGUAAAUAUCUACAUACAGGGAUAUUUGUAUGUGUGGUUGUGAAACCCAUACACAAGUGGAUUUGGCCAUCUUUGGGCAGUGAGGUCAAAUGUGAAUAUGUGUAAAAG: 0.535
UCUCCGGUGACACCUAUAAGCCUCCAUUGAGCUCAGAGAGGAUGCCUUAGGCUGGAUCCUGCUCCUCUGUGAGGAGUAAGGGUGCCUAAUAAAUACAUUUCUGCUUUAUU: 0.155
CUUUCUGAUCCCAGGAGCUCAGCUCGACUGUUAACAUCUGAAGCUUAUUCUCUUCCUUCCCGCUGGGGGGAGACGGCAUUAUCUUGUUCUGGGGCCUGACCCACCUUGGC: 0.406
CUUCAAGGAUGAUGUUAGAAAAAUGUGAUUUAACUAGAACUUGUUUGAUGUUAGCAAAUCAUGGAAUGUUCUAAGUCUCUGAGGGUUUACUGUGAAGUGUUGAGGACAGU: 0.995
AGUUCUUUUCUGGCAACUGUCACACUCACACAUGAAGGCAAUCCGUGCAGCACAAUACAAGAUGUUUAAACAAGGUGUCAGAUUUUUUUUUUAACCUAUGAGUGGAUAGA: 0.503
GUGAAUUUUAACAAAUAUGACACAGAAAAGGUCAGAUGCUGUUGUAUAAAAUUUUUUACUAGUGUGUCUUAUAUAAUUCUUUCUUCUCAUUAAUUCAGUGCCUUUUUCCU: 0.854
UGUUUCUUGUAUGGGGCCGUGGCCCUUUUGGUUGUUUUUGGUCAUUUUCUUAAAAACACAACACAACACAAUACAACACAACAGUUUUAAACCUGAAGAUUUCCGCAGUC: 0.355
UGGCAGGGACCAACCAGGCUGCCUGUGCCCGUCUGCUGCCUCCGAGACACCAGAGGUCUGCUGCAGAGCCCCACCAAGAACCAAGAUGAAGAAAGCCCCUGAGAGAUGCA: 22.5
CCCUGCACCCACUCCCUUCAUAGAAUCUAGUCAGAAUAACGCCUCUGGGGGUGCAGGUUCUCGGACCACAUCGAGGGACAGCUCCCUGUACCAGGAGAGUUGAGAGAUAG: 0.487
CGACAUGUGGCAGACACACAGUAAAUAAUGGCUGACCAGCAUGAGGGCAGUACUGUCAGAAAUUUCUUUGAGCUGUGAGAUGGAUUUAUUUUUAAAUGCUACUUUGUAAA: 8.47
CAGUAGAUGUAAUGGAAGCCAAAUUAAAUUGAUACAGAACCCAUUUCUCAGAGUCUUUUUUUUUUUUUGAGACAGAGUCUCGCUGUUACCCAGGCUGGAGUGCAAUGGCG: 0.342

Sample 5
Target: Sal-like protein 4, full length isoform B (SALL4, Homo sapiens, UniProt Q9UJQ4-2, residues 1-616)
Method: universal PBM
Form: double-stranded DNA, one strand shown
Sample: in vitro
Concentration: not given
Notes: 8-mer, flanks averaged, mean of replicates
Direction: higher = stronger binding
Endpoint: E-score
Target sequence (chain): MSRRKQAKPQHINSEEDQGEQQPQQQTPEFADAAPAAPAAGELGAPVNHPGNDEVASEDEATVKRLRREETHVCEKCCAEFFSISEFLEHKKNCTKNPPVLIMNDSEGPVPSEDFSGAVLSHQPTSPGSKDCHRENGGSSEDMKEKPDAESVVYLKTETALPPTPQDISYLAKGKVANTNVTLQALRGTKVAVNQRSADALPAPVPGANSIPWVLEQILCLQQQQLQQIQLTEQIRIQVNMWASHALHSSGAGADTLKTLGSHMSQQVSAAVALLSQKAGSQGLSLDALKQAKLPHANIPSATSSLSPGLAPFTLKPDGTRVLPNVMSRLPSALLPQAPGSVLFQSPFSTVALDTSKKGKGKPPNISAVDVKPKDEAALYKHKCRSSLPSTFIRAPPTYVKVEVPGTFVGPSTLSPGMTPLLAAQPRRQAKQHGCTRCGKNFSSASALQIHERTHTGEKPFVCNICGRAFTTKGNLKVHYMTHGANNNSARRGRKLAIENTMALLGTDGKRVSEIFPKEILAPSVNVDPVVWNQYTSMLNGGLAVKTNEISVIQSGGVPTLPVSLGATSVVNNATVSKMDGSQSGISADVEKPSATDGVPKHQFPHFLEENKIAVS
GACGCTAA: -0.0544
GGCCGCGA: -0.355
AACGCTCC: -0.0701
ACATGCGT: -0.0155
CTTGGACA: -0.187
CTCCCGAA: -0.146
GTGCAAAA: 0.12
CATGTGCG: 0.0177
GGCGTCAA: -0.199
ACCCCAAC: -0.0548
ATCGATAA: 0.229
AAACGGTT: -0.0779
CGCAGAAA: 0.00165
GCGCTGGA: -0.362
CCGGCGCG: -0.273
ATGACGAA: 0.186
GGAACAGA: 0.0169
ACTCTCAC: -0.0149
ATTGCTTC: 0.159

Some of these lines once more (sample 5):
ACATGCGT: -0.0155
GTGCAAAA: 0.12
ATCGATAA: 0.229
AACGCTCC: -0.0701
GCGCTGGA: -0.362
ATGACGAA: 0.186
GGCGTCAA: -0.199
GGCCGCGA: -0.355
CTCCCGAA: -0.146
ACCCCAAC: -0.0548
CATGTGCG: 0.0177
CCGGCGCG: -0.273
ACTCTCAC: -0.0149
GACGCTAA: -0.0544
